Results of several laboratories.

Compound = CCN(O)N=Nc1ccc(S(=O)(=O)Nc2cc(C)on2)cc1; assay = DPPH scavenging, absorbance; setting = 120 µg/mL; endpoint = inhibition; result = 28.6%
Compound = CC(=NNC(N)=S)c1ccc(Nc2nnc(-c3ccc(Cl)cc3)c3ccccc23)cc1; target or system = HepG2; assay = cell growth or viability, MTT; setting = 0.156 µM, 24 h; endpoint = viability; result = 46.5%
Compound = C=C[C@@]1(C)C=C2CC[C@@H]3[C@](C)(CCC[C@@]3(C)C(=O)O)[C@H]2CC1; target or system = Helicobacter pylori; assay = microbial growth, broth dilution; setting = 0.98 µg/mL; endpoint = inhibition; result = 26.4%
Compound = CC(=NNC(=S)Nc1ccccc1)c1ccc(Nc2nnc(-c3ccc(Cl)cc3)c3ccccc23)cc1; target or system = HepG2; assay = cell growth or viability, MTT; setting = 2.5 µM, 24 h; endpoint = viability; result = 22.5%
Compound = Cc1noc(NS(=O)(=O)c2ccc(N=NN(O)c3ccccc3)cc2)c1C; assay = DPPH scavenging, absorbance; setting = 120 µg/mL; endpoint = inhibition; result = 12.2%
Compound = O=C(Nc1ccccc1)Nc1ccc(Oc2nnc(-c3ccc(Cl)cc3)c3ccccc23)cc1; target or system = HepG2; assay = cell growth or viability, MTT; setting = 2.5 µM; endpoint = cell death; result = 94.8%
Compound = CCCC(=O)Nc1ccc(-c2ccc3ncn(Cc4ccc(C)cc4)c(=O)c3c2)cn1; target or system = HCC827; assay = cell growth or viability, CCK-8; setting = 72 h; endpoint = IC50; result = > 10 µM
Compound = CC(=NNC(=O)c1ccccc1Br)c1ccc(Nc2nnc(-c3ccc(Cl)cc3)c3ccccc23)cc1; target or system = HepG2; assay = cell growth or viability, MTT; setting = 5 µM, 24 h; endpoint = viability; result = 4.4%
Compound = CCCN(O)N=Nc1ccc(S(=O)(=O)Nc2cc(C)on2)cc1; assay = DPPH scavenging, absorbance; setting = 60 µg/mL; endpoint = inhibition; result = 16.7%
Compound = Cc1cc(C)c(C#N)c(SC2COc3ccccc3C2=O)n1 (centres unmarked); target or system = Trypanosoma brucei; assay = parasite growth, resazurin; system = RHODESIENSE; endpoint = EC50; result = > 64 µM
Compound = COc1cc(-c2cc(=O)c3c(O)cc(O)cc3o2)ccc1O; target or system = Helicobacter pylori; assay = microbial growth, broth dilution; setting = 0.98 µg/mL; endpoint = inhibition; result = 55.2%
Compound = Cc1ccc(N(O)N=Nc2ccc(S(=O)(=O)Nc3onc(C)c3C)cc2)cc1; assay = DPPH scavenging, absorbance; setting = 120 µg/mL; endpoint = inhibition; result = 10.9%
Compound = Cc1cc(C)c(C#N)c(SCC(N)c2ccccc2)n1 (centres unmarked); target or system = Leishmania infantum; assay = parasite growth; system = mouse Macrophage; setting = intracellular, amastigote; endpoint = EC50; result = 32.3 µM
Compound = CCCN(O)N=Nc1ccc(S(=O)(=O)Nc2onc(C)c2C)cc1; assay = DPPH scavenging, absorbance; setting = 120 µg/mL; endpoint = inhibition; result = 11.1%
Compound = CC(=NNC(=O)c1ccccc1O)c1ccc(Nc2nnc(-c3ccc(Cl)cc3)c3ccccc23)cc1; target or system = HepG2; assay = cell growth or viability, MTT; setting = 5 µM, 24 h; endpoint = viability; result = 15.8%
Compound = Cc1cccc(N(O)N=Nc2ccc(S(=O)(=O)Nc3onc(C)c3C)cc2)c1; assay = DPPH scavenging, absorbance; setting = 300 µg/mL; endpoint = inhibition; result = 33.7%
Compound = CC(=NNC(=O)c1ccc(N)cc1)c1ccc(Nc2nnc(-c3ccc(Cl)cc3)c3ccccc23)cc1; target or system = HepG2; assay = cell growth or viability, MTT; setting = 2.5 µM, 24 h; endpoint = viability; result = 20.8%
Compound = CC[C@H]1OC(=O)[C@H](C)[C@@H](O[C@H]2C[C@@](C)(OC)[C@@H](O)[C@H](C)O2)[C@H](C)[C@@H](O[C@@H]2O[C@H](C)C[C@H](N(C)C)[C@H]2O)[C@](C)(OC)C[C@@H](C)C(=O)[C@H](C)[C@@H](O)[C@]1(C)O; target or system = Helicobacter pylori; assay = microbial growth, broth dilution; setting = 0.48 µg/mL; endpoint = inhibition; result = 87.7%
Compound = COc1cc(-c2nc3ccccc3c(=O)n2Nc2ccc([N+](=O)[O-])cc2[N+](=O)[O-])ccc1OCc1cn(CC(=O)Nc2ccccc2F)nn1; assay = DPPH scavenging, absorbance; setting = 100 µM; endpoint = inhibition; result = 28.2%
Compound = CN(O)N=Nc1ccc(S(=O)(=O)Nc2nccs2)cc1; assay = DPPH scavenging, absorbance; setting = 180 µg/mL; endpoint = inhibition; result = 23.3%
Compound = COc1cc([C@H]2OC[C@H]3[C@@H]2CO[C@@H]3c2cc(OC)c(O)c(OC)c2)cc(OC)c1O; target or system = Helicobacter pylori; assay = microbial growth, broth dilution; setting = 125 µg/mL; endpoint = inhibition; result = 100%
Compound = CC(=NNC(=O)c1ccccc1)c1ccc(Nc2nnc(-c3ccc(Cl)cc3)c3ccccc23)cc1; target or system = HepG2; assay = cell growth or viability, MTT; setting = 10 µM; endpoint = cell death; result = 96.7%
Compound = COc1cccc(C(=O)C[S+]([O-])c2nc(C)cc(C)c2C#N)c1 (centres unmarked); target or system = Leishmania infantum; assay = parasite growth; system = mouse Macrophage; setting = intracellular, amastigote; endpoint = EC50; result = 24.9 µM

A few entries again:
Compound = CN(O)N=Nc1ccc(S(=O)(=O)Nc2nccs2)cc1; assay = DPPH scavenging, absorbance; setting = 180 µg/mL; endpoint = inhibition; result = 23.3%
Compound = COc1cc([C@H]2OC[C@H]3[C@@H]2CO[C@@H]3c2cc(OC)c(O)c(OC)c2)cc(OC)c1O; target or system = Helicobacter pylori; assay = microbial growth, broth dilution; setting = 125 µg/mL; endpoint = inhibition; result = 100%
